Measurements pooled from the literature.
Compare with care: the assays were run in different laboratories. Values joined by “and” are separate records of one study, mostly repeats; a detail may differ.
Target: Protein kinase C iota type (PRKCI, Homo sapiens, UniProt P41743)

Structure (SMILES) = COc1cc(Nc2nc(C)cc(-c3cnn4nc(OC)ccc34)n2)cc(C(F)(F)F)c1; assay = inhibitor; setting = 1 µM; scale = baseline: control; quantity = remaining activity; result = 79%
Structure (SMILES) = CN1CCN(Cc2ccc(-c3ccc(CO[C@H]4CCC[C@@H]4NC(=O)c4cc(-c5cnn(C)c5)cnc4N)cc3)cc2)CC1; assay = enzyme activity, inhibitor; setting = 0.1 µM; quantity = inhibition; result = -6%
Structure (SMILES) = O=C(Cc1ccc(OCc2ccccc2)cc1)NC1(C(=O)O)CCN(C(=O)c2ccc(-c3cccc(Cl)c3)cc2)CC1; assay = enzyme activity, inhibitor; setting = 10 µM; quantity = activity vs control; result = 122%
Structure (SMILES) = NC(=O)[C@@H](O)C[C@H]1CCc2sc3ncnc(O[C@H]4CC[C@H](N5CCOCC5)CC4)c3c21; assay = enzyme activity, inhibitor; setting = 10 µM; quantity = inhibition; result = 5%
Structure (SMILES) = Cc1cnc2nc1Nc1cccc(c1)COC/C=C/COCc1cc(ccc1OCCN1CCOCC1)N2; assay = binding; setting = 0.1 µM; quantity = remaining binding; result = 93%
Structure (SMILES) = CCn1cc(C(=O)O)c(=O)c2c(N)c(F)c(NC3CCCCC3)cc21; assay = kinase activity; setting = 0.1 µM, together with: ATP at Km; quantity = inhibition; result = -2.1%
Structure (SMILES) = CCN1CCN(Cc2ccc(C(=O)Nc3ccc(C)c(NCc4cnc5[nH]ccc5c4OC)c3)cc2C(F)(F)F)CC1; assay = binding, competition with immobilised ligand; setting = 1 µM; quantity = remaining binding; result = 70%
Structure (SMILES) = Nc1ncc2c(n1)-c1c([nH]c3ccc(C4=CCOCC4)cc13)CCC2; assay = binding, competition with immobilised ligand; setting = 1 µM; quantity = remaining binding; result = 97%
Structure (SMILES) = COc1c(Cl)cccc1Nc1c(-c2ccncc2C#C[C@@]2(C)CCCN2C(=O)/C=C/CN(C)C)[nH]c2c1C(=O)NCC2; assay = cell-free assay, competition with immobilised ligand; setting = 3 µM; quantity = remaining binding; result = 68%
Structure (SMILES) = C=CC(=O)N1Cc2nc(-c3cc(-c4cc(Cl)cnc4Cl)c(F)cc3F)n(-c3ccncn3)c2C1; assay = cell-free assay; setting = 1 µM; quantity = inhibition; result = 2.1%
Structure (SMILES) = O=C=[N][Ru-4]123([n]4c5ccc(O)cc5c5c6c(c7cc(F)c[n+]1c7c54)C(=O)NC6=O)[S+]1CC[S+]2CC[S+]3CC1 (stereo not drawn); assay = enzyme activity; setting = 100 nM, human enzyme, together with: 10 µM ATP; scale = baseline: untreated; quantity = remaining activity; result = 88%
Structure (SMILES) = COc1c(OCCCN2CCOCC2)ccc2c1N=C(NC(=O)c1cnc(N)nc1)N1CCN=C21; assay = kinase activity, inhibitor; setting = 1 µM; scale = baseline: untreated control; quantity = remaining activity; result = 114%
Structure (SMILES) = C=CC(=O)N1CCc2ccc(-n3c(=O)ccc4cnc5ccc(-c6cnn(C)c6)cc5c43)cc21; assay = KINOMEscan; setting = 1 µM; scale = baseline: DMSO control; quantity = remaining binding; result = 97%
Structure (SMILES) = Cc1cccc(O[C@H]2CCC[C@@H](C(C)CNCc3ccncc3)C2)c1 (relative stereo); assay = enzyme activity; setting = 1 µM; quantity = inhibition; result = -3%
Structure (SMILES) = C=CC(=O)Nc1cccc(-c2cnc3[nH]cc(C(=O)NC(C)(C)C)c3n2)c1; assay = kinase activity; setting = 0.1 µM; quantity = inhibition; result = 7% and -4%

For quick reference, copied from above:
Structure (SMILES) = Cc1cccc(O[C@H]2CCC[C@@H](C(C)CNCc3ccncc3)C2)c1 (relative stereo); assay = enzyme activity; setting = 1 µM; quantity = inhibition; result = -3%
Structure (SMILES) = CCN1CCN(Cc2ccc(C(=O)Nc3ccc(C)c(NCc4cnc5[nH]ccc5c4OC)c3)cc2C(F)(F)F)CC1; assay = binding, competition with immobilised ligand; setting = 1 µM; quantity = remaining binding; result = 70%
